Measured values of several laboratories.
± gives the spread as reported.

SMILES = O=C(c1ccc(F)cc1)C1CCN(C2Cc3c(cccc3OCC[18F])CC2O)CC1 (single isomer, unassigned; (-)); test system = Sprague-Dawley rat, male, bone; setting = intravenous, dose not given, 5 min; tissue uptake = 0.426 ± 0.086 %ID/g
SMILES = C[C@]12CC[C@H](OCC[18F])C[C@H]1CC[C@@H]1[C@@H]2CC[C@]2(C)[C@@H](c3ccc(=O)oc3)CC[C@]12O; test = micro-PET imaging; test system = BALB/c nude mice, SMMC-7721 xenograft, tumour; setting = intravenous, 7.4 MBq, 6 h; tissue uptake = 2.48 ± 0.57 %ID/g
SMILES = C=Cc1cc(O)cc2nc(-c3ccc(O)c([76Br])c3)oc12; test system = female C57BL/6 mouse, muscle; setting = 1 h, low dose; tissue uptake = 0.23 ± 0.13 %ID/g
SMILES = CCCC[C@H](NC(=O)CCOCCOCCNC(=O)CN1CCN(CC(=O)O)CCN(CC(=O)O)CCN(CC(=O)O)CC1)C(=O)N[C@H]1CC(=O)NCCCC[C@@H](C(N)=O)NC(=O)[C@H](Cc2c[nH]c3ccccc23)NC(=O)[C@H](CCCNC(=N)N)NC(=O)[C@@H](Cc2ccccc2)NC(=O)[C@H](Cc2c[nH]cn2)NC1=O [gallium-68 labelled]; test system = C57BL/6J mice male B16-F10 tumour, liver; setting = 1 h post injection, unblocked; tissue uptake = 0.6 ± 0.1 %ID/g
SMILES = O=C(O)CC[C@H](NC(=O)O[C@@H](CCCCNC(=O)c1ccc([18F])cc1)C(=O)O)C(=O)O; test system = mouse, PC-3 PIP/flu xenografts, bladder; setting = 180 min; tissue uptake = 2.74 ± 0.48 %ID/g
SMILES = N=C(N)NCc1ccc(C(=O)NCCCC[C@H](NC(=O)N[C@@H](CCC(=O)O)C(=O)O)C(=O)O)cc1[211At]; test system = SCID mouse, PC-3 xenografts, lungs; setting = 1 h; tissue uptake = 3.29 ± 0.56 %ID/g
SMILES = COc1cc(C(=O)NCCOCCOCCOCCNC(=O)c2ccc([18F])nc2)ccc1NC(=O)C1NC(CC(C)(C)C)C(C#N)(c2ccc(Cl)cc2F)C1c1cccc(Cl)c1F (centres unmarked); test system = athymic male mice, SJSA-1 xenograft, small intestine; setting = 2 h; tissue uptake = 1.39 ± 0.83 %ID/g
SMILES = COc1cc2ncnc(Oc3cccc(N[11C](=O)Nc4cc(C(C)(C)C(F)(F)F)on4)c3)c2cc1OC; test system = Balb/c nude mouse, female, A375 melanoma xenograft, blood; setting = 6.6 MBq, 30 min; tissue uptake = 1.75 ± 0.45 %ID/g
SMILES = COc1cc2ccnc(Cc3ccc(O[11CH3])c(OC)c3)c2cc1OC; test system = Sprague-Dawley rats, testes; setting = intravenous, 0.08333 h; tissue uptake = 0.288 ± 0.035 %ID/g
SMILES = N=C(N)NCc1ccc(C(=O)NCCCC[C@H](NC(=O)N[C@@H](CCC(=O)O)C(=O)O)C(=O)O)cc1[131I]; test system = SCID mouse, PC-3 xenografts, blood; setting = 21 h; tissue uptake = 0.01 %ID/g
SMILES = CN[C@](C)(C[18F])C(=O)O; test system = SCID mouse DU-145 xenograft, brain; setting = 30 min, post injection; tissue uptake = 0.3 ± 0.03 %ID/g
SMILES = N=C(N)NCc1ccc(C(=O)NCCCC[C@H](NC(=O)CCCCCCC(=O)NCCCC[C@H](NC(=O)N[C@@H](CCC(=O)O)C(=O)O)C(=O)O)C(=O)O)cc1[211At]; test system = SCID mouse, PC-3 xenografts, kidneys; setting = 1 h; tissue uptake = 86.5 ± 15.5 %ID/g
SMILES = CCNc1cc2[o+]c3cc(NCC)c(C)cc3c(-c3ccccc3C(=O)OCCOCC[18F])c2cc1C; test system = rat, skin; setting = 120 min; tissue uptake = 0.16 ± 0.04 %ID/g
SMILES = NC(=O)[C@@H](CCCCNC(=O)CNC(=O)CCC(=O)NCCc1c[nH]cn1)NC(=O)[C@@H](Cc1ccc(O)cc1)NC(=O)[C@@H](CCCCNC(=O)CNC(=O)CCC(=O)NCCc1c[nH]cn1)NC(=O)Cc1ccc(CN2CCN(CC(=O)O)CCN(CC(=O)O)CC2)cc1 [fluorine-18 labelled]; test system = tumour-bearing nude mice, kidney; setting = intravenous, 1.04 MBq, 3 h, no pretargeting; tissue uptake = 2.27 ± 0.29 %ID/g

A few entries again:
SMILES = NC(=O)[C@@H](CCCCNC(=O)CNC(=O)CCC(=O)NCCc1c[nH]cn1)NC(=O)[C@@H](Cc1ccc(O)cc1)NC(=O)[C@@H](CCCCNC(=O)CNC(=O)CCC(=O)NCCc1c[nH]cn1)NC(=O)Cc1ccc(CN2CCN(CC(=O)O)CCN(CC(=O)O)CC2)cc1 [fluorine-18 labelled]; test system = tumour-bearing nude mice, kidney; setting = intravenous, 1.04 MBq, 3 h, no pretargeting; tissue uptake = 2.27 ± 0.29 %ID/g
